Measured values gathered from unrelated publications.
Lines come from different studies, so protocols differ.

Structure (SMILES)	cell line	assay	setting	scale	quantity	result
CCCCCCCCCCc1cn(Cc2cn([C@H]3C[C@H](O)[C@@H](COC(=O)OC[C@H]4O[C@@H](n5cc(C)c(=O)[nH]c5=O)C[C@@H]4N=[N+]=[N-])O3)c(=O)[nH]c2=O)nn1	MT4	cell growth or viability	–	–	IC50	29.2 µM
C#C[C@@]1(O)[C@@H](CO)O[C@@H](n2cc(Br)c3c(N)ncnc32)[C@@H]1O	HL-60	cell growth or viability, SRB	48 h	–	GI50	0.047 µM
C=CC=C[C@@H]1CC2=CC(=O)CC[C@]2(C)[C@H]2CC[C@]3(C)[C@@H](O)CC[C@H]3[C@H]12	DU-145	cell growth or viability, MTT	48 h	–	IC50	29 µM
Oc1ccc2c3c1O[C@H]1c4oc5ccccc5c4C[C@@]4(O)[C@@H](C2)N(CC2CC2)CC[C@]314	HEK293 expressing MOR	morphine-induced cAMP overshoot, HTRF cAMP	1 µM, added: NKH 477 25 nM	baseline: morphine control	Emax	128%
CCCCOc1ccc(Nc2cn(C3C=CC(O)C3)c(=O)n(CCCn3c(=O)c(C)cn(C4CC(N=[N+]=[N-])C(CO)O4)c3=O)c2=O)cc1 (stereo not drawn)	MT4	cell growth or viability	–	–	IC50	17.5 µM
CC(O)(CS(=O)(=O)c1ccc(F)cc1)C(=O)Nc1ccc(C#N)c(C(F)(F)F)c1 (stereo not drawn)	VCaP	cell growth or viability, ATP luminescence	–	–	IC50	4.95 µM
C[C@H](NCCc1ccc(O)cc1)C(=O)c1ccc(OCc2ccccc2)cc1	SK-BR-3	cell viability, MTT	72 h	–	IC50	0.143 µM
Brc1c(Br)c(Br)c2n[nH]nc2c1Br	HEK293 expressing MOR	morphine-induced cAMP overshoot, HTRF cAMP	1 µM, added: NKH 477 25 nM	baseline: morphine control	efficacy	54%
C#C[C@@]1(O)[C@@H](CO)O[C@@H](n2cc(Cl)c3c(N)ncnc32)[C@@H]1O	HL-60	cell growth or viability, SRB	48 h	–	GI50	0.059 µM
CC(C)[C@@H]1NC(=O)[C@@H]2CSSC[C@H](NC(=O)[C@@H](N)CCCCN)C(=O)N[C@@H](CCCNC(=N)N)C(=O)N[C@@H](CCC(=O)O)C(=O)N[C@H]3CSSC[C@H](NC(=O)[C@H](CCCCN)NC(=O)CNC(=O)[C@H](CC(N)=O)NC1=O)C(=O)N[C@@H](C(C)C)C(=O)N[C@H](C(=O)N1CCC[C@H]1C(=O)N[C@@H](C)C(=O)O)CSSC[C@H](NC(=O)[C@H](CO)NC(=O)[C@@H]1CCCN1C(=O)[C@H](CO)NC(=O)[C@H]([C@@H](C)O)NC(=O)[C@H](CC(N)=O)NC(=O)CNC3=O)C(=O)N[C@@H](Cc1ccc(O)cc1)C(=O)N[C@@H](Cc1ccccc1)C(=O)N[C@@H](CO)C(=O)NCC(=O)N[C@@H](CC(N)=O)C(=O)N2	human CD4 effector memory T cells	flow cytometry	1.5 µM, 30 min pre-incubation, added: anti-CD3 for 24 h	baseline: stimulated untreated	CD40L expression	~47%
Oc1ccc2c3c1O[C@H]1c4[nH]c5ccccc5c4C[C@@]4(O)[C@@H](C2)N(CC2CC2)CC[C@]314	HEK293 expressing MOR	morphine-induced cAMP overshoot, HTRF cAMP	1 µM, added: NKH 477 25 nM	baseline: morphine control	Emax	72%
COc1ccc2c(c1)c(CCN1CCOCC1)c(C)n2C(=O)c1cccc(Cl)c1Cl	HepG2	phospholipidosis induction, inducer, high-content imaging	24 h, primary screen	–	EC50	11.2 µM

Some of these lines once more:
Structure (SMILES)	cell line	assay	setting	scale	quantity	result
CCCCOc1ccc(Nc2cn(C3C=CC(O)C3)c(=O)n(CCCn3c(=O)c(C)cn(C4CC(N=[N+]=[N-])C(CO)O4)c3=O)c2=O)cc1 (stereo not drawn)	MT4	cell growth or viability	–	–	IC50	17.5 µM
